Measured values of several laboratories.
Every numbered part comes from another study and shows a few of its results, in no order. Positions count from the first letter of the parent shown.

Set 1
Target: CCNB1, cyclin fold, Cln2 fusion (human)
Technique: yeast growth competition, sequencing
Sample: yeast
Notes: strong parent motif
Reference: not given
Reading: higher = stronger binding
Quantity: normalised enrichment score
Starting sequence: viral docking peptide; TSVRRALFTGGSD; partner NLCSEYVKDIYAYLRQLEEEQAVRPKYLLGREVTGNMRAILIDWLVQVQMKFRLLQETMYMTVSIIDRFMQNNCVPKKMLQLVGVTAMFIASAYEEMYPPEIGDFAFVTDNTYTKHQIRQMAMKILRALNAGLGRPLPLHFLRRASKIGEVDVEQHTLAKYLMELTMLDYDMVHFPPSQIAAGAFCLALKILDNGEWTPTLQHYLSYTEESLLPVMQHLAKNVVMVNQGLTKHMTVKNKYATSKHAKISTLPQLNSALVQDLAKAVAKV
TSVRRALFTGGID [S12I]: 2.07
TSVRRALFTTGSD [G10T]: 2.25
TWVRRALFTGGSD [S2W]: 0.487
TSVRRALFTGSSD [G11S]: 2.57
TSVRWALFTGGSD [R5W]: 0.149
TSVRRALFTKGSD [G10K]: 0.997
TSVRRALFNGGSD [T9N]: 1.43
TSVRRRLFTGGSD [A6R]: 1.98
TSVRRALFTGGQD [S12Q]: 2.39
TSWRRALFTGGSD [V3W]: 0.206
TSVRRQLFTGGSD [A6Q]: 2.29
TSVRRALFTGGCD [S12C]: 2.38
TLVRRALFTGGSD [S2L]: 1.03
TSQRRALFTGGSD [V3Q]: -0.203
TSARRALFTGGSD [V3A]: 0.475
TSVDRALFTGGSD [R4D]: 0.0648
TSVRRAIFTGGSD [L7I]: 0.106
TTVRRALFTGGSD [S2T]: 1.93
TSVREALFTGGSD [R5E]: -0.0544
TSVRRDLFTGGSD [A6D]: 0.386
TSVRRAQFTGGSD [L7Q]: -0.0363
TSGRRALFTGGSD [V3G]: -0.203
TSVRRALWTGGSD [F8W]: 0.52
TSVRNALFTGGSD [R5N]: 0.165
TSVRRALFGGGSD [T9G]: 1.66

Set 2
Target: HLA class I histocompatibility antigen, A alpha chain, allele A*25:01 (Homo sapiens, UniProt P04439)
Observed: peptide-MHC binding
Form: peptide
Concentration: concentration not given
Quantity: binding
GQMYNMNTL: inactive
ALYEENALK: inactive
RVGIYFGMK: inactive

Set 3
Target: Hepatocyte nuclear factor 3-alpha (Foxa1, Mus musculus, UniProt P35582, residues 1-468, full length assumed)
UniProt P35582, sequence (whole entry, looked up): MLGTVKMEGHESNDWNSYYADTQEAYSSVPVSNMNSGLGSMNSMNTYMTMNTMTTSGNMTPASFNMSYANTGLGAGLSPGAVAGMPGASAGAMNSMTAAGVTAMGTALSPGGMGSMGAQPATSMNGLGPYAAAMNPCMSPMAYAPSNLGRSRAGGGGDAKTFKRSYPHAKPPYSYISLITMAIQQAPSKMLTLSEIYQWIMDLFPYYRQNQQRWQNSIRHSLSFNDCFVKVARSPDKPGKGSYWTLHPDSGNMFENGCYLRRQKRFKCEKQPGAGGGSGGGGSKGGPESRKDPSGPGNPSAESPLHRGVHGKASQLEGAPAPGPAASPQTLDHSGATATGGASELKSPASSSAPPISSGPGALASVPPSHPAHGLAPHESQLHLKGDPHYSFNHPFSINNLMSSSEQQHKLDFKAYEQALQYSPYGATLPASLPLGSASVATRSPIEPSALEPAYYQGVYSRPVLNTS
Technique: EMSA with sequencing
Form: double-stranded DNA, one strand shown
Sample: in vitro
Concentration: 10 and 20 nM
Notes: whole designed probe, mean of two concentrations, ends assumed
Reference: negative control set to 0
Reading: higher = stronger binding
Quantity: normalised bound fraction
Constant ends, left off below: GTGAGCGGTGCCCATTGATGGGGAAC … TTTCACTGGGATCGTGGGGAC
TTAAGTTGGCAAAATTTAGGAAGCCAGATGATGCCAGATTTTGGCAGGACTTTGAGGATATTGGAACCATTACAGGTTCCTATGACTCAGCAATGTTTGCATAGGTTATGAGAGAACATGTAAGGAATTGTTTATTAAGGCATTATTTGAAGTGGCAATGAGTTGGAGGACATTCGCAAATCCATCACTGAGA: 0.446 ratio
GCTGAAGAAGTATTCCACATCCGTCCAAGTGGACTATTCACTTAAGAAAACATTAATGCCATTTGCTGGCACAGATGCCCTTGCATGGCTCATAGATTACATACTGAAAAACATCTAGCTCCACTGAGCTTTTAAAATTAACTAGAGCCCTTGAACTGTCCAGGCAAAGAGAAAATCATCAGTAATATTTAAA: 0.0748 ratio
ATCTTCCCCCTCTTCCTTGCCCCACCAGCTCACCTTCCCGGGTTATTTGCAGATAGGAAAATAAATAAAGCCGGCATTCGTTAACCCTCTTCTGGCGCAAACTGCTGTTTGCTCTGGATGAATCATGGTCCTTTGGCGACGCATCCGCCGGGGAGAGCAAAGCACCGTGTCAGGGCCATGATCCGGGGTGGCC: 0.343 ratio
CAGCAAGGAATTTATAAGAAAATGATGTTGAGAAACCATTCTATTTCTCCAAGGAGCAGAGCCACCACACATTTACACAAGGATGTTCTTGCTAGATTACACATACAACACAGTATGCTTCTAGGTGCAGTTGCATTCCAGGCAGCCCCGAGTGGCAGTCTCCCATTTTGGCATCTGTTGGCAGGAGGTTATC: 0.0349 ratio
ATCTTCCCCCTCTTCCTTGCCCCACCAGCTCATCCTCCCGGGTTATTTGCAGATAGGAAAATAAATAAAGCCGGCATTCGTTAACCCTCTTCTGGCGCAAACTGCTGTTTGCTCTGGATGAATCATGGTCCTTTGGCGACGCCAGGCTCCGGGAGAGCAAAGCACCGTGTCAGGGCCATGATCCGGGGTGGCC: 0.322 ratio
CTCATTCCTTGCTTCCGCCAATAATCTGACTAGTAAAGAAGTCACTGCATGCCACAAATTGTCAGTGCTGACTTCCTCAACAAGGAAGTTATTTATTTACTTATTTAATATATATGCAAAGAGTGACTCAGTTCCATCTTGAGAATACCAACTCCTGATGCCAACTGATTGTCAGTCATGGCTACAACAGGAG: 0.472 ratio
CTTGCTGATTGCTAGCACAGCAGTCTGAGATCAAACTGCAAGGCGGCAGCAAGGCTGGGGGAGGGGCGCCCGCCATTGCCCAGGCTTGCTTAGGTAAACAAAGCAGCCTGGAAGCTCGTACTGGGTGGAGCCCACGACGCTCAAGGAGGCCTGCCTGCCTCTGTAGGCTCCACCTCTGGGGGCAGGGCACAGA: 0.533 ratio
AGGTGAATTGGCTGCTTCCATCCTGGCTTGGAACTTCAGACATAGAAGCCTTGGGACTTTCTCAGGACTTTCTCCAGATCTGACTCATGCTCAGCAAACAAGCATCTCTGTGGATCACGTGACCTTAGCCAGGGATGTTGGTGAAACTGTGTGTTGGTCTAGGTACCTAGCCCATGCTAGGTGCTCATCGAAT: 0.0992 ratio

Set 4
Target: Sal-like protein 4, full length isoform B (SALL4, Homo sapiens, UniProt Q9UJQ4-2, residues 1-616)
Technique: universal PBM
Form: double-stranded DNA, one strand shown
Sample: in vitro
Concentration: not given
Notes: 8-mer, flanks averaged, mean of replicates
Reading: higher = stronger binding
Quantity: E-score
Construct (chain): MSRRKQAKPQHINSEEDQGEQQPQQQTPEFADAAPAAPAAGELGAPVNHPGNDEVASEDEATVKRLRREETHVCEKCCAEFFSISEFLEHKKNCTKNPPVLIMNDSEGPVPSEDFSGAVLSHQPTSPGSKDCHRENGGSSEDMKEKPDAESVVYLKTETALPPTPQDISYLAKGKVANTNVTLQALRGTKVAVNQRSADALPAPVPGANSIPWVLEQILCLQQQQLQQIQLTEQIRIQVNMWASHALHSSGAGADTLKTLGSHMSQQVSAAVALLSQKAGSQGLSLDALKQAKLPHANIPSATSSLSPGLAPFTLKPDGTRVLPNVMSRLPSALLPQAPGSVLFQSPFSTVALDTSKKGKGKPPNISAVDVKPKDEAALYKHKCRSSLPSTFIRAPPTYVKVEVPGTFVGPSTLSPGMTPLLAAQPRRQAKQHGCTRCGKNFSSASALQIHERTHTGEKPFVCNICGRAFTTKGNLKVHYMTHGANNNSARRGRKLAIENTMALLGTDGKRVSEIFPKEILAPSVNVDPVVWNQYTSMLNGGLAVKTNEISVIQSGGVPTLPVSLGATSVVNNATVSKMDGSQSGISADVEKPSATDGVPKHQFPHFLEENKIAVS
CATAGGTC: 0.0612
AACTGCCA: -0.127
CACCCCCC: -0.254
ACTCAGGC: -0.0263
ATGGCGTG: 0.0205
CAGCTAGC: -0.26
CCTCAGGC: -0.314
CCGTGTCC: -0.285

Set 5
Target: UBE2A UBC core domain (UniProt P49459)
UniProt P49459, sequence (whole entry, looked up): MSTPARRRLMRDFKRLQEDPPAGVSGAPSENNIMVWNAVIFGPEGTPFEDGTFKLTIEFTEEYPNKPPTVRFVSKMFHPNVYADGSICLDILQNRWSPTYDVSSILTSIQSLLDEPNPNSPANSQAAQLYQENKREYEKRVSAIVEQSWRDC
Technique: yeast two-hybrid
Sample: yeast
Notes: mostly zero background
Reference: not given
Reading: higher = stronger interaction
Quantity: lacZ reporter activity
B1: RNF24 RING domain (UniProt Q9Y225); chain KVKELNLHELCAVCLEDFKPRDELGICPCKHAFHRKCLIKWLEVRKVCPLCNMPVLQLAQLH
B2: TRIM22 RING domain (UniProt Q8IYM9); chain KEVKMSPQEGQKRDVCEHHGKKLQIFCKEDGKVICWVCELSQEHQGHQTFRINEVVKECQEK
B3: PRKN RING domain (UniProt O60260); chain LIATNSRNITCITCTDVRSPVLVFQCNSRHVICLDCFHLYCVTRLNDRQFVHDPQLGYSLPCVAGCPNSLIKELHH
B1 (RNF24 RING domain): 0
NTAPSLTVPECAICLQTCVHPVSLPCKHVFCYLCVKGASWLGKRCALCRQEIPEDFLDK (RNF146 RING domain (UniProt Q9NTX7)): 0
B2 (TRIM22 RING domain): 0
B3 (PRKN RING domain): 0

Set 6
Target: PABPC1L2, full length, GST fusion (mouse, UniProt A0ABA7IW68)
Technique: RNAcompete
Form: RNA
Sample: in vitro
Concentration: 20 nM
Notes: 7-mer, probes averaged, single round
Reference: mean of 7-mers
Reading: higher = stronger binding
Quantity: 7-mer Z-score
Construct (chain): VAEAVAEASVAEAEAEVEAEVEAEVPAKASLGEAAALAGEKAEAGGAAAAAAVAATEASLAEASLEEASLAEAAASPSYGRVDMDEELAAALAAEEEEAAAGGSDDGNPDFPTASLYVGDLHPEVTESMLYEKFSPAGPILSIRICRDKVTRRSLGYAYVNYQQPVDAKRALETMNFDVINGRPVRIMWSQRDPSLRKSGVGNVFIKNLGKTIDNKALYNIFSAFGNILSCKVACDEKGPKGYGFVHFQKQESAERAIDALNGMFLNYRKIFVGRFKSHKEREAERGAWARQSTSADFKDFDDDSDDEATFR
CGUCUUA: -0.398
GCUUACU: -0.202
CGAUAAU: -0.115
UGAUGCU: -0.15
GUAUCGC: -0.364
UUCAUGA: -0.112
UGGCCCC: -0.331
CCAGGCG: -0.204

Other studies, line by line
LAMP5 (Homo sapiens, UniProt Q9UJQ1) — cross-linked residues (TCAF1 (Homo sapiens, UniProt Q9Y4C2); cross-linking MS; cells; added: BSPNO): M1 to K140

For quick reference, copied from above (set 6):
UGGCCCC: -0.331
GCUUACU: -0.202
CCAGGCG: -0.204
GUAUCGC: -0.364
CGAUAAU: -0.115
UGAUGCU: -0.15
UUCAUGA: -0.112
